Experimental data of several laboratories.
Protocols differ between the studies behind these lines.

| assay | test system | conditions | scale | Cmax | SMILES |
| --- | --- | --- | --- | --- | --- |
|  | human, fed | oral suspension, 300 mg/day twice daily, day 1, arithmetic mean |  | 699 ng/mL | CCn1cc(C(=O)N2CCOCC2)c(=O)c2cc(NC3Cc4ccccc4C3)cnc21 |
|  | human paediatric patients, weight sample B to under sample C kg, plasma | oral, 50 mg film-coated tablet, steady state, geometric mean, population PK post-hoc, N 6 |  | 5170 ng/mL | C[C@@H]1CCO[C@H]2Cn3cc(C(=O)NCc4ccc(F)cc4F)c(=O)c(O)c3C(=O)N12 |
|  | human, whole blood | oral, 600 mg single dose |  | 511 ng/mL | C=CC(=O)N(C)CCOc1c(N)ncnc1-c1cc(F)cc(NC(=O)c2ccc(C3CC3)cc2F)c1C |
|  | human | oral, 200 mg once daily, cycle 1 day 17, added: durvalumab 1500 mg IV | geometric mean | 676 nM | C=CCn1c(=O)c2cnc(Nc3ccc(N4CCN(C)CC4)cc3)nc2n1-c1cccc(C(C)(C)O)n1 |
|  | human, plasma | intravenous, 6 mg, cycle 1 day 15, arithmetic mean |  | 273 ng/mL | CO[C@H]1C[C@@H]2CC[C@@H](C)[C@@](O)(O2)C(=O)C(=O)N2CCCC[C@H]2C(=O)O[C@H]([C@H](C)C[C@@H]2CC[C@@H](OC(=O)NCCOCCOCCOCCOCCOCCOCCOCCOCCC(=O)N3CCc4cc(Cn5nc(-c6ccc7oc(N)nc7c6)c6c(N)ncnc65)ccc4C3)[C@H](OC)C2)C[C@@H](O)[C@H](C)/C=C(\C)[C@@H](O)[C@@H](OC)C(=O)[C@H](C)C[C@H](C)/C=C/C=C/C=C/1C |
|  | human, Phase Ib patients, plasma | 300 mg, multiple doses, mean, added: fulvestrant |  | 362 ng/mL | CCN1CCN(Cc2ccc(Nc3ncc(F)c(-c4cc(F)c5nc6n(c5c4)[C@H](C)CCC6)n3)nc2)CC1 |
|  | human, DLBCL, plasma | oral, 30 mg, day 15 |  | 3920 nM | CCOc1c([C@H](C)n2nc(C)c3c(N)ncnc32)cc(Cl)c(F)c1[C@@H]1CNC(=O)C1 |
| geometric mean | human | oral, 50 mg single dose, fasted, liquid |  | 603 ng/mL | Cl.[2H]C([2H])([2H])CC(=O)c1cnc(NC(=O)C2CC2)cc1Nc1cccc(-c2ncn(C([2H])([2H])[2H])n2)c1OC |
|  | human mild hepatic impairment | oral, 200 mg single dose, covariate-adjusted geometric mean |  | 1270 ng/mL | CNC(=O)c1ccc(-c2cnc3ncc(Cc4ccc5ncccc5c4)n3n2)cc1F |
| LC-MS/MS | human, plasma | oral, 7.5 mg, cycle 1 day 8, low-dose arm |  | 48.1 ng/mL | COc1ncc(-c2nc3c(n2C(C)C)[C@H](c2ccc(Cl)cc2)N(c2cc(Cl)cn(C)c2=O)C3=O)c(OC)n1 |

Repeated from above:
| assay | test system | conditions | scale | Cmax | SMILES |
| --- | --- | --- | --- | --- | --- |
|  | human paediatric patients, weight sample B to under sample C kg, plasma | oral, 50 mg film-coated tablet, steady state, geometric mean, population PK post-hoc, N 6 |  | 5170 ng/mL | C[C@@H]1CCO[C@H]2Cn3cc(C(=O)NCc4ccc(F)cc4F)c(=O)c(O)c3C(=O)N12 |
